Assay results collected from several papers.
Lines come from different studies, so protocols differ. ± gives the spread as reported.
B1: BHRF1 1-160 (Epstein-Barr virus, UniProt P03182); chain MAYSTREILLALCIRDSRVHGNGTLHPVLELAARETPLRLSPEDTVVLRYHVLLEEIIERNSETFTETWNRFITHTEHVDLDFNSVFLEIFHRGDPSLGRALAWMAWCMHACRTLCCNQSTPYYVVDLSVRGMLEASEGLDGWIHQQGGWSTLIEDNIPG
B2: VP35 1-215 (Zaire ebolavirus, UniProt Q05127); chain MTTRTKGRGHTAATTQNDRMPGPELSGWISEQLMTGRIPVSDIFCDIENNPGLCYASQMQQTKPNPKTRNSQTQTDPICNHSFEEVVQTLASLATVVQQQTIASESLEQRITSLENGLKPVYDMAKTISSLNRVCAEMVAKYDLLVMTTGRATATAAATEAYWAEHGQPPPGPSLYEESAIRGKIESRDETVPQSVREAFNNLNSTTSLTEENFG
B3: RB1 pocket domain A-B, GSGS linker 372-577 (UniProt P06400); chain HTPVRTVMNTIQQLMMILNSASDQPSENLISYFNNCTVNPKESILKRVKDIGYIFKEKFAKAVGQGCVEIGSQRYKLGVRLYYRVMESMLKSEEERLSIQNFSKLLNDNIFHMSLLACALEVVMATYSRSTSQNLDSGTDLSFPWILNVLNLKAFDFYKVIESFIKAEGNLTREMIKHLERCEHRIMESLAWLSDSPLFDLIKQSKGSGSTSLSLFYKKVYRLAYLRLNTLCERLLSEHPELEHIIWTLFQHTLQNEYELMRDRHLDQIMMCSMYGICKVKNIDLKFKIIVTAYKDLPHAVQETFKRVLIKEEEYDSIIVFYNSVFMQRLKTNILQYAST
B4: E2 DNA-binding domain 279-365 (HPV16, UniProt P03120); chain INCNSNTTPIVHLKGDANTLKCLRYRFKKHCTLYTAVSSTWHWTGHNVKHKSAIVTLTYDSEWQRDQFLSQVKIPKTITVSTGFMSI
B5: env gp140 (HIV-2); chain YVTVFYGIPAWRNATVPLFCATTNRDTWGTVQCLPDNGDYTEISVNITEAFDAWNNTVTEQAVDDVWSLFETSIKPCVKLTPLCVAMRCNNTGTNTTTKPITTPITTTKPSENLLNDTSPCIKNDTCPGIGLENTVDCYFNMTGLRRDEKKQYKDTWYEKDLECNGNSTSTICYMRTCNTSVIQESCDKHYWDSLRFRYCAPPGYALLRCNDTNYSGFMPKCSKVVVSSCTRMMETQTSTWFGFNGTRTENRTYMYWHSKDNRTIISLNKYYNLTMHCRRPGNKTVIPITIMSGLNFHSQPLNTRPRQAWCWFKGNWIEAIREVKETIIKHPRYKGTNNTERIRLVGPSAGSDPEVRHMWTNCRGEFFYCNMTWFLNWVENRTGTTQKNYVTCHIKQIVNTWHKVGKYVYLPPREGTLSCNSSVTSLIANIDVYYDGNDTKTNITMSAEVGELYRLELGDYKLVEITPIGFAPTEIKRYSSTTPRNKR
Sequence of UniProt Q96AX9 (whole entry, looked up): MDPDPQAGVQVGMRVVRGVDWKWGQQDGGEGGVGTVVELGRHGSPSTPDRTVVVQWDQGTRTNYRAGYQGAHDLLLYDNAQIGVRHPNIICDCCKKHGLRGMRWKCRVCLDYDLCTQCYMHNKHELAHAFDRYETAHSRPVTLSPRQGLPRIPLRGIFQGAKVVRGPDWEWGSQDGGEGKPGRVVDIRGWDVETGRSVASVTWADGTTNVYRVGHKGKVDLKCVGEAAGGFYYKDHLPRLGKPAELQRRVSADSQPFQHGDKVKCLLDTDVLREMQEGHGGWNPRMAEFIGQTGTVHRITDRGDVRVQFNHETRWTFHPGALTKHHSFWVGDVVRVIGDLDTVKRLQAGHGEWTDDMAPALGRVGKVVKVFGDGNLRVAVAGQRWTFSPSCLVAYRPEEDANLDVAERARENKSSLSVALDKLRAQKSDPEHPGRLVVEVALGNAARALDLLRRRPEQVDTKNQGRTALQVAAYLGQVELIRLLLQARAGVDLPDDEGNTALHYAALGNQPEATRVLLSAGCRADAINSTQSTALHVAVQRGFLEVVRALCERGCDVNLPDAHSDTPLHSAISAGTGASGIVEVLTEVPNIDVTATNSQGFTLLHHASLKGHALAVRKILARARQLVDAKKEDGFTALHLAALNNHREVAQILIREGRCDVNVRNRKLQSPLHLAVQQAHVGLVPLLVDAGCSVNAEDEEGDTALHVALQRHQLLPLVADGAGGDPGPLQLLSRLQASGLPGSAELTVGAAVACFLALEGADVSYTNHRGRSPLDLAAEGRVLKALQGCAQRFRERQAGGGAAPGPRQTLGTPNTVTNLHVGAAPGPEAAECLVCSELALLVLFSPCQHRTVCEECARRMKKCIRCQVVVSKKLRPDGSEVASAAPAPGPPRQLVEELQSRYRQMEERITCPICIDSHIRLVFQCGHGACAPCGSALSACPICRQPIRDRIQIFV

Molecule = B1 (BHRF1 1-160); tested on = BECN1 90-171 (Homo sapiens, UniProt A0A024R1X5); assay = ITC; measurement = ΔH; result = 7.2 ± 2 kJ/mol
Molecule = B2 (VP35 1-215); tested on = MIB2 1-836 (Homo sapiens, UniProt Q96AX9); assay = ITC; measurement = molecule per partner; result = 0.8 ± 0.2
Molecule = Crebbp fragment (Mus musculus) (sequence not shown); tested on = E7 fragment H9C/C24A, pS31/pS32, TEMPO label C9 (human papillomavirus 16); assay = paramagnetic relaxation enhancement NMR; measurement = binding; result = binds
Molecule = QEDIIRNIARHLAQVGDSMDRSIPPG (BID 79-104 (Homo sapiens, UniProt P55957); sequence looked up); tested on = BHRF1 1-160 (Epstein-Barr virus, UniProt P03182); assay = ITC; system = peptide; measurement = Kd; result = 300 ± 100 nM
Molecule = BM2 transmembrane peptide (Influenza B virus); assay = solid-state NMR, measured: His19; system = VM+ membrane pellets; setting = 243 K, average of four tetrad pKa; measurement = pKa; result = 5.1
Molecule = Vif fragment (HIV-1) (sequence not shown); tested on = PPP2R5A (Homo sapiens, UniProt Q15172-1); assay = cryo-EM; measurement = binding; result = binds
Molecule = B3; tested on = E7 (HPV16, UniProt P03129); assay = NMR; measurement = binding; result = binds
Molecule = nsp16 (SARS-CoV-2, UniProt P0DTD1); tested on = itself; assay = cross-linking; measurement = subunits per oligomer; result = 3
Molecule = ESSELTLQELLGEER (UBE3A 403-417); tested on = E6 (UniProt P06931); assay = SPR; system = peptide; measurement = koff; result = 0.2 s⁻¹
Molecule = hsaC (Mycobacterium tuberculosis, UniProt P9WNW7); tested on = Cc1ccc(O)c(O)c1CC[C@@H]1C(=O)CC[C@]2(C)[C@@H]([C@H](C)C(=O)SCCNC(=O)CCNC(=O)[C@H](O)C(C)(C)COP(=O)(O)OP(=O)(O)OC[C@H]3O[C@@H](n4cnc5c(N)ncnc54)[C@H](O)[C@@H]3OP(=O)(O)O)CC[C@@H]12; assay = steady-state kinetics; setting = pH 7.5, 25 °C; measurement = kcat/Km; result = 2.1e+07 M⁻¹ s⁻¹
Molecule = B4 (E2 DNA-binding domain 279-365); tested on = BRD4 (Homo sapiens, UniProt O60885-2); assay = pull-down; measurement = binding; result = binds
Molecule = B5 (env gp140); tested on = CD4 fragment (Homo sapiens); assay = SPR; measurement = Kd; result = 684 nM
